Measurements from different studies.
Protocols differ between the studies behind these lines. Several values in a cell are separate wells, animals, samples, runs or records. ± marks the error that the study gave. Ends that are not written are not given here.

COc1ccc2cc3[n+](cc2c1OC)CCc1cc2c(cc1-3)OCO2  inhibition (SARS-CoV-2 envelope protein; Vero C1008; 2.5 µg/mL): 12.5 ± 0.8%
Nc1ncnc2c([C@@H]3N[C@H](CO)[C@@H](O)[C@H]3O)c[nH]c12  inhibition (Nipah henipavirus; viral replication; HeLa, Malaysia; 3.1 µM): 1.4%
CCC(CC)O[C@@H]1C=C(C(=O)O)C[C@H](N)[C@H]1NC(C)=O  IC50 (neuraminidase N1 swine influenza; influenza A virus, swine strains; mean): 1.26 nM
CCN(CC)C(=S)SSC(=S)N(CC)CC  IC50 (Enterovirus A71 2A protease; enzyme activity, FRET): > 60000 nM
CNC(=O)[C@@H](NC(=O)[C@H](CC(C)C)[C@H](O)C(=O)NO)C(C)(C)C  IC50 (snake venom metalloproteinase; proteolytic activity, inhibitor; Daboia russelii, venom RJ; added: azocasein): 1440 nM and 1990 nM and 1570 nM
QPLRKLCILHRNPGRCYQKIPAFYYNQKKKQCEGFTWSGCGGNSNRFKTIEECRRTCIRK (dendrotoxin I; ends and bridges not checked; cysteine pairing not given here; sequence looked up)  DTX substate probability (maxi-KCa channel, rat muscle; channel block, planar bilayer single-channel; 460 nM, no BPTI): 0.968
GsMTx4  SAC current after washout (stretch-activated cation channel, rat; ion current, outside-out patch clamp; rat astrocytes; dose not given, 10 s after washout, mean of last eight pressure steps): 2.28 ± 0.17 pA
CC(C)=CC[C@@H](O)C1=CC(=O)c2c(O)ccc(O)c2C1=O  IC50 (Enterovirus A71 2A protease; enzyme activity, FRET): > 60000 nM
Cc1ccc(-c2nc(C[S+]([O-])CC(=O)N3CCN(c4ccc(Cl)cc4)CC3)c(C)o2)cc1 (stereo not drawn)  efficacy (SARS-CoV-2; cytopathic effect; USA_WA1/2020; round 1, 5-point): 36.9%
O=c1c2ccccc2[se]n1-c1ccccc1  IC50 (Enterovirus A71 3C protease; enzyme activity, FRET): > 60000 nM
C[C@H](C(=O)N[C@H]1COc2ccccc2[C@@H]1S(C)(=O)=O)c1ccc(F)cc1  inhibition (strychnine-sensitive glycine receptor, rat; binding; 10 µM, Eurofins selectivity panel): -12%
CC(C)CC(=O)OC[C@H]1O[C@@](C#N)(c2ccc3c(N)ncnn23)[C@H](O)[C@@H]1O  inhibition (strychnine-sensitive glycine receptor rat; radioligand binding; 20 µM): 6%
Cn1cnc(Cn2c(=O)[nH]/c(=N\c3cc4cn(C)nc4cc3Cl)n(Cc3cc(F)c(F)cc3F)c2=O)n1  patients with adverse event (human, mild renal impairment; oral, 375 mg, hypertriglyceridaemia TEAE, Severe severity): 0%
NC1=N[C@H](O)[C@H]2[C@H]3O[C@]4(O)O[C@@H]([C@@H](O)[C@@]2(N1)[C@@H]4O)[C@]3(O)CO  action potential firing (voltage-gated sodium channels; depolarization-evoked action potentials, inhibitor; concentration not given): inhibited
CCC(C)SSc1ncc[nH]1 (stereo not drawn)  IC50 (Enterovirus A71 2A protease; enzyme activity, FRET): > 60000 nM
CCCCN(CCCNC(=O)c1cc(Nc2ccc(OC)c(OC)c2)nc2ccccc12)Cc1ccccc1  AC50 (SARS-CoV-2; cytopathic effect, cell-based CPE; USA_WA1/2020; round 2, 5-point dilution): 10 µM
CC[C@H](C)[C@H](NC(=O)[C@H](CC(C)C)NC(=O)[C@H](Cc1c[nH]c2ccccc12)NC(=O)[C@H](CCC(N)=O)NC(=O)[C@@H](NC(=O)[C@H](Cc1ccccc1)NC(=O)[C@H](C)NC(=O)[C@H](CCCCNC(=O)COCCOCCNC(=O)COCCOCCNC(=O)CC[C@H](NC(=O)CCCCCCCCCCCCCCCCCCC(=O)O)C(=O)O)NC(=O)[C@H](CCC(N)=O)NC(=O)[C@H](C)NC(=O)[C@@H](NC(=O)[C@H](CCCCN)NC(=O)[C@H](CC(=O)O)NC(=O)[C@H](CC(C)C)NC(=O)C(C)(C)NC(=O)[C@@H](NC(=O)[C@H](CO)NC(=O)[C@H](Cc1ccc(O)cc1)NC(=O)[C@H](CC(=O)O)NC(=O)[C@H](CO)NC(=O)[C@@H](NC(=O)[C@H](Cc1ccccc1)NC(=O)[C@@H](NC(=O)CNC(=O)[C@H](CCC(=O)O)NC(=O)C(C)(C)NC(=O)[C@@H](N)Cc1ccc(O)cc1)[C@@H](C)O)[C@@H](C)O)[C@@H](C)CC)[C@@H](C)CC)C(C)C)C(=O)N[C@@H](C)C(=O)NCC(=O)NCC(=O)N1CCC[C@H]1C(=O)N[C@@H](CO)C(=O)N[C@@H](CO)C(=O)NCC(=O)N[C@@H](C)C(=O)N1CCC[C@H]1C(=O)N1CCC[C@H]1C(=O)N1CCC[C@H]1C(=O)N[C@@H](CO)C(N)=O  subjects with adverse events (measured: Rhinorrhoea; healthy subjects; 5/5/8/10 mg titrated, multiple ascending dose): 28.6%
GCCSNPVCHLEHSNLC (α-conotoxin MII; not fully specified (C-terminus, bridges); cysteine pairing not given here; sequence looked up)  remaining peak current (nAChR, mouse; ion current; peptide, SCG neurons of wild-type mice; dose not given; relative to: control): 100% and 98.4% and 98.2%
CC[C@@]1(O)C[C@H](O[C@H]2C[C@H](N(C)C)[C@H](O[C@H]3C[C@H](O)[C@H](O[C@H]4CCC(=O)[C@H](C)O4)[C@H](C)O3)[C@H](C)O2)c2c(cc3c(c2O)C(=O)c2c(O)cccc2C3=O)[C@H]1C(=O)OC  protein expression (SARS-CoV-2 NSP7, NSP8 and RdRp; SARS-CoV-2; 0.4 µM, 24 h, added: ET-770 30 nM): no effect
C=C(C)[C@@H]1CC[C@]2(C(=O)Nc3ccc4ccccc4c3)CC[C@]3(C)[C@H](CC[C@@H]4[C@@]5(C)CC[C@H](O[C@@H]6O[C@H](CO)[C@@H](O[C@@H]7O[C@@H](C)[C@H](O)[C@@H](O)[C@H]7O)[C@H](O)[C@H]6O[C@@H]6O[C@@H](C)[C@H](O)[C@@H](O)[C@H]6O)C(C)(C)[C@@H]5CC[C@]43C)[C@@H]12  cell-cell fusion inhibition (SARS-CoV-2 Omicron spike glycoprotein; spike-expressing cells, SARS-CoV-2 Omicron; 10 µM): inhibited
CCC(CC)[C@H](NC(C)=O)[C@@H]1[C@H](O)[C@@H](C(=O)O)C[C@H]1N=C(N)N  IC50 (neuraminidase N1 swine influenza; influenza A virus, swine strains; mean): 0.22 nM

Some of these lines once more:
CC[C@H](C)[C@H](NC(=O)[C@H](CC(C)C)NC(=O)[C@H](Cc1c[nH]c2ccccc12)NC(=O)[C@H](CCC(N)=O)NC(=O)[C@@H](NC(=O)[C@H](Cc1ccccc1)NC(=O)[C@H](C)NC(=O)[C@H](CCCCNC(=O)COCCOCCNC(=O)COCCOCCNC(=O)CC[C@H](NC(=O)CCCCCCCCCCCCCCCCCCC(=O)O)C(=O)O)NC(=O)[C@H](CCC(N)=O)NC(=O)[C@H](C)NC(=O)[C@@H](NC(=O)[C@H](CCCCN)NC(=O)[C@H](CC(=O)O)NC(=O)[C@H](CC(C)C)NC(=O)C(C)(C)NC(=O)[C@@H](NC(=O)[C@H](CO)NC(=O)[C@H](Cc1ccc(O)cc1)NC(=O)[C@H](CC(=O)O)NC(=O)[C@H](CO)NC(=O)[C@@H](NC(=O)[C@H](Cc1ccccc1)NC(=O)[C@@H](NC(=O)CNC(=O)[C@H](CCC(=O)O)NC(=O)C(C)(C)NC(=O)[C@@H](N)Cc1ccc(O)cc1)[C@@H](C)O)[C@@H](C)O)[C@@H](C)CC)[C@@H](C)CC)C(C)C)C(=O)N[C@@H](C)C(=O)NCC(=O)NCC(=O)N1CCC[C@H]1C(=O)N[C@@H](CO)C(=O)N[C@@H](CO)C(=O)NCC(=O)N[C@@H](C)C(=O)N1CCC[C@H]1C(=O)N1CCC[C@H]1C(=O)N1CCC[C@H]1C(=O)N[C@@H](CO)C(N)=O  subjects with adverse events (measured: Rhinorrhoea; healthy subjects; 5/5/8/10 mg titrated, multiple ascending dose): 28.6%
CNC(=O)[C@@H](NC(=O)[C@H](CC(C)C)[C@H](O)C(=O)NO)C(C)(C)C  IC50 (snake venom metalloproteinase; proteolytic activity, inhibitor; Daboia russelii, venom RJ; added: azocasein): 1440 nM and 1990 nM and 1570 nM
CC(C)CC(=O)OC[C@H]1O[C@@](C#N)(c2ccc3c(N)ncnn23)[C@H](O)[C@@H]1O  inhibition (strychnine-sensitive glycine receptor rat; radioligand binding; 20 µM): 6%
